Assay results from different studies.
Protocols differ between the studies behind these lines. “And” joins repeats or separate records; there may be more than shown. ± marks the error that the study gave.

O=C(CCN1CCN(C/C=C/c2ccccc2)CC1)Nc1ccc2c(c1)CCC2 — larval motion (locomotor activity in dark; zebrafish larvae, 7 dpf; 10 µM, minute 1, dark phase): 5 ± 0.9 pixels/frame
CN(CCC#N)c1nc(NCC[C@H]2CCCN2C)nc2sc(-c3ccccc3)cc12 — pCa50 (force-pCa relationship; C57BL/6N mice, skinned left ventricular papillary fibres; 30 µM, 30 min, DMSO 5.86): 5.63
Cc1cc(C(C)(C)C)ccc1OCCOCCN(C)C — larval motion (locomotor activity in dark; zebrafish larvae, 7 dpf; 10 µM, minute 7, dark phase): 12.2 ± 0.8 pixels/frame
COc1ccc2cc3[n+](cc2c1OCCCOC(=O)c1cscn1)CCc1cc2c(cc1-3)OCO2 — maximum LDL-C reduction (HFD-fed C57BL/6 mouse; dose not given): ≤ 62.4%
COc1ccccc1C1CCN(CCC(=O)Nc2ccc(C)c(C)c2)CC1 — larval motion (zebrafish larvae, 7 dpf; 10 µM, minute 6): 1.5 ± 0.9 pixels/frame
COc1cc(N2CCN(C(=O)C3CCCN3)CC2)ccc1Nc1ncc(Cl)c(Nc2ccccc2P(C)(C)=O)n1 (stereo not drawn) — tumour volume (nude mice, NCI-H3122 xenograft; oral, 25 mg/kg every two days, day 7): 131 mm3 and 87.3 mm3 and 22 mm3 and 46.5 mm3 and 85.9 mm3
Cc1cn(CC(=O)N(CC(=O)N[C@H]2CCC[C@@H]2N(CC(=O)N[C@H]2COC[C@@H]2N(CC(=O)N[C@H]2COC[C@@H]2N(CC(=O)N[C@H]2COC[C@@H]2N(CC(=O)NCCOCCOCC(N)=O)C(=O)Cn2cnc3c(N)ncnc32)C(=O)Cn2cc(C)c(=O)[nH]c2=O)C(=O)Cn2cnc3c(N)ncnc32)C(=O)Cn2cnc3c(=O)[nH]c(N)nc32)[C@H]2CCC[C@@H]2NC(=O)CN(C(=O)Cn2cnc3c(=O)[nH]c(N)nc32)[C@H]2CCC[C@@H]2NC(=O)CN(C(=O)Cn2cc(C)c(=O)[nH]c2=O)[C@H]2COC[C@@H]2NC(=O)CN(C(=O)Cn2cnc3c(N)ncnc32)[C@H]2COC[C@@H]2NC(=O)CN(C(=O)Cn2cnc3c(=O)[nH]c(N)nc32)[C@H]2COC[C@@H]2N)c(=O)[nH]c1=O — Tm (UV melting; DNA duplex with T·T mismatch; pH 7.2, 1 µM each strand): 65 °C
COc1ccc(NC(=O)c2ccc3[nH]c(-c4ccc(N(C)C)cc4)nc3c2)cn1 — tumour volume (CT26, BALB/c mice, subcutaneous syngeneic graft; dose not given, day 9): 566 mm3 and 378 mm3 and 475 mm3 and 293 mm3 and 131 mm3
NC[C@@H](C(=O)Nc1ccc(-c2cn[nH]c2)cc1)c1ccccc1 — intraocular pressure (normotensive Macaca cyclopis, right eye; 0.03 %, pre-dose): 21.1 mmHg
O=C(CCN1CCN(C/C=C/c2ccccc2)CC1)Nc1ccccc1 — larval motion (locomotor activity in dark; zebrafish larvae, 7 dpf; 10 µM, minute 3, dark phase): 3 ± 0.5 pixels/frame
COc1cc(O)ccc1CCC(c1ccc(O)cc1)c1cc2c(c(C)c1O)OC(c1ccc(O)cc1)CC2 (mixture of isomers) — amount (refers to: PGD2; human whole blood; 0.3 µM, together with: Escherichia coli): 135 ± 64 pg/mL blood
COc1cnc2cccc(N3CCc4c(cc(Cn5ccnc5)cc4-c4cn(C)nc4C(F)(F)F)C3=O)c2c1 — tumour volume (BALB/c nude mice, MV4-11 xenograft; intraperitoneal, 75 mg/kg, day 14): 160 mm3 and 178 mm3 and 184 mm3 and 180 mm3 and 177 mm3
CC(=O)[O-].O.O.O.O.[Mn+2].[O-]c1ccc(Br)cc1C=NCCN1CCOCC1 — inhibition (DPPH radical scavenging; 200 µM): 45.1%
CC[C@H](C)[C@H](NC(=O)[C@H](Cc1ccc(O)cc1)NC(=O)[C@H](CCC(=O)O)NC(=O)CNC(=O)[C@H](CCC(=O)O)NC(=O)[C@H](CCCCN)NC(=O)[C@H](CCCCN)NC(=O)[C@H](CC(=O)O)NC(=O)[C@H](Cc1c[nH]cn1)NC(=O)[C@H](Cc1c[nH]cn1)NC(=O)[C@H](Cc1c[nH]cn1)NC(=O)[C@H](Cc1c[nH]cn1)NC(=O)[C@H](Cc1c[nH]cn1)NC(=O)[C@H](Cc1c[nH]cn1)NC(=O)[C@H](Cc1c[nH]cn1)NC(=O)[C@H](Cc1c[nH]cn1)NC(=O)[C@H](Cc1c[nH]cn1)NC(=O)[C@@H](N)Cc1c[nH]cn1)C(=O)N[C@@H](CCCCN)C(=O)N[C@@H](CC(C)C)C(=O)N[C@@H](CCCCN)C(=O)N[C@H](C(=O)N[C@H](C(=O)NCC(=O)N[C@@H](CCC(N)=O)C(=O)N[C@@H](CC(=O)O)C(=O)N[C@@H](CO)C(=O)N[C@@H](CO)C(=O)N[C@@H](CCC(=O)O)C(=O)N[C@H](C(=O)N[C@@H](Cc1c[nH]cn1)C(=O)N[C@@H](Cc1ccccc1)C(=O)N[C@@H](CCCCN)C(=O)N[C@H](C(=O)N[C@@H](CCCCN)C(=O)N[C@@H](CCSC)C(=O)N[C@H](C(=O)N[C@H](C(=O)N[C@@H](Cc1c[nH]cn1)C(=O)N[C@@H](CC(C)C)C(=O)N[C@@H](CCCCN)C(=O)N[C@@H](CCCCN)C(=O)N[C@@H](CC(C)C)C(=O)N[C@@H](CCCCN)C(=O)N[C@@H](CCC(=O)O)C(=O)N[C@@H](CO)C(=O)N[C@@H](Cc1ccc(O)cc1)C(=O)N[C@@H](CS)C(=O)N[C@@H](CCC(N)=O)C(=O)N[C@@H](CCCNC(=N)N)C(=O)N[C@@H](CCC(N)=O)C(=O)O)[C@@H](C)O)[C@@H](C)O)C(C)C)[C@@H](C)CC)[C@@H](C)CC)C(C)C — rhabdomere count mean difference (pseudopupil; Drosophila α-synuclein A53T transgenic; 240 µM; relative to: untreated): -2.32
Cc1cn(CC(=O)N(CCNC(=O)CN(CCNC(=O)CN(CCNC(=O)CN(CCNC(=O)CN(CCNC(=O)CN(CCNC(=O)CN(CCNC(=O)CN(CCN)C(=O)Cn2cnc3c(=O)[nH]c(N)nc32)C(=O)Cn2cnc3c(N)ncnc32)C(=O)Cn2cc(C)c(=O)[nH]c2=O)C(=O)Cn2cnc3c(=O)[nH]c(N)nc32)C(=O)Cn2cc(C)c(=O)[nH]c2=O)C(=O)Cn2cnc3c(=O)[nH]c(N)nc32)C(=O)Cn2cnc3c(N)ncnc32)CC(=O)NCCN(CC(=O)NCCOCCOCC(N)=O)C(=O)Cn2cnc3c(N)ncnc32)c(=O)[nH]c1=O — Tm (UV melting; RNA duplex with T·C mismatch; pH 7.2, 1 µM each strand): 29.9 °C
CN(C)CCOCCOc1ccc(Cl)c(Cl)c1 — larval motion (locomotor activity in dark; zebrafish larvae, 7 dpf; 10 µM, minute 1, dark phase): 2.3 ± 1 pixels/frame
CN1CCC[C@]1(C)/C=C/S(=O)(=O)NC(=O)Nc1c2c(cc3c1CCC3)CCC2 — IL-1β inhibition (human, whole blood ex vivo; 250 mg single dose, 6 h, single ascending dose, together with: LPS and ATP): 99%
Cc1cccc(NC(=O)CCN2CCN(C/C=C/c3ccccc3)CC2)c1 — larval motion (zebrafish larvae, 7 dpf; 10 µM, minute 2): 5 ± 1 pixels/frame
CN(C)CCCSC(=S)N1CCN(C(=O)/C=C/c2coc3ccccc3c2=O)CC1 — inclusion body count (N condensate formation, confocal microscopy, refers to: N-YFP; Nicotiana benthamiana leaves; 100 µg/mL, 72 h post-injection, injected 36 h post-infiltration): 9 and 6 and 8 and 14
Cc1cc(OCCOCCN(C)C)cc(C(C)C)c1 — larval motion (locomotor activity in dark; zebrafish larvae, 7 dpf; 10 µM, minute 5, dark phase): 1.3 ± 0.4 pixels/frame
COC1CN([C@H]2CC[C@H]([C@@]3(C)Oc4c(Cl)cc(C(=O)NCc5c(SC)cc(C)[nH]c5=O)c(C)c4O3)CC2)C1 — log2 fold change (RNA-seq, refers to: LOXL1; human, whole blood; dose not given, 24 h; relative to: pretreatment baseline): 1.67
CN(C)C(=O)c1ccnc(N2Cc3cn(Cc4ccc(F)cc4F)nc3C2)n1 — paired-pulse ratio (mouse, hippocampal slice, Schaffer collaterals; dose not given, interstimulus interval 100; relative to: second over first response): 1.44 and 1.6 and 1.61 and 1.64 and 1.56 and 2.37 and 1.57
O=C(CCN1CCN(C/C=C/c2ccccc2)CC1)Nc1ccccc1F — larval motion (locomotor activity in dark; zebrafish larvae, 7 dpf; 10 µM, minute 5, dark phase): 2 ± 0.8 pixels/frame
O=S(=O)(NCc1ccncc1)c1ccc(C2CCCCC2)cc1 — GFAP area reduction (immunohistochemistry; CK-p25 mice female, hippocampus; ip, 0.3 mg/kg daily, 6 wk; relative to: vehicle): ~25%

Some of these lines once more:
O=C(CCN1CCN(C/C=C/c2ccccc2)CC1)Nc1ccccc1F — larval motion (locomotor activity in dark; zebrafish larvae, 7 dpf; 10 µM, minute 5, dark phase): 2 ± 0.8 pixels/frame
CC(=O)[O-].O.O.O.O.[Mn+2].[O-]c1ccc(Br)cc1C=NCCN1CCOCC1 — inhibition (DPPH radical scavenging; 200 µM): 45.1%
Cc1cccc(NC(=O)CCN2CCN(C/C=C/c3ccccc3)CC2)c1 — larval motion (zebrafish larvae, 7 dpf; 10 µM, minute 2): 5 ± 1 pixels/frame
COc1cc(O)ccc1CCC(c1ccc(O)cc1)c1cc2c(c(C)c1O)OC(c1ccc(O)cc1)CC2 (mixture of isomers) — amount (refers to: PGD2; human whole blood; 0.3 µM, together with: Escherichia coli): 135 ± 64 pg/mL blood
